Published values of several laboratories.
Numbered parts are unrelated; each lists some results of a single study. Substitutions count along the parent as printed.

Sample 1 — method: RNAcompete; form: RNA; medium: in vitro; concentration: 20 nM; setting: 7-mer, probes averaged, single round; reference: mean of 7-mers; direction: higher = stronger binding; measurement: 7-mer Z-score
Target: PABPC1L2, full length, GST fusion (mouse, UniProt A0ABA7IW68)
Residues (chain): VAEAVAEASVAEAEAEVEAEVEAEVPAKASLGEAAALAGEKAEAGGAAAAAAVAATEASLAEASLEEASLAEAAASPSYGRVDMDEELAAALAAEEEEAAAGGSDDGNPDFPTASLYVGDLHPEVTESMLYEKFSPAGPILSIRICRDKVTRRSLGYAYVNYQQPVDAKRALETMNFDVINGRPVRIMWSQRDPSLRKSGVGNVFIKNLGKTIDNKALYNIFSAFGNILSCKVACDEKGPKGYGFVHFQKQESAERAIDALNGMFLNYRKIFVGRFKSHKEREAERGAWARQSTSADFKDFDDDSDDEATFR
CCAAAGG: 0.1
CAUGUCC: -0.13
UGACAAA: 1.15
ACCGUUU: -0.3
AGCGCUG: -0.17
GACUACC: -0.151
UUCCGAU: -0.266
AGCUCGC: -0.304

Sample 2 — method: protein-binding microarray; form: double-stranded DNA, one strand shown; medium: in vitro; concentration: 2200 nM top; setting: 60-bp whole probe; together with: salmon DNA 0.4 mg/ml; reference: random background probes; direction: higher = stronger binding; measurement: fitted relative affinity; shared flanks, not repeated: GCCTAGCAC … GTCTTGATTCGCTTGACGCTGCTG
Target: Interferon regulatory factor 7, full length, phosphomimetic (IRF7, Homo sapiens, UniProt Q92985, residues 1-503, S471D/S472D/S475D/S476D/S477D/S483D/S484D/S487D)
Residues (chain): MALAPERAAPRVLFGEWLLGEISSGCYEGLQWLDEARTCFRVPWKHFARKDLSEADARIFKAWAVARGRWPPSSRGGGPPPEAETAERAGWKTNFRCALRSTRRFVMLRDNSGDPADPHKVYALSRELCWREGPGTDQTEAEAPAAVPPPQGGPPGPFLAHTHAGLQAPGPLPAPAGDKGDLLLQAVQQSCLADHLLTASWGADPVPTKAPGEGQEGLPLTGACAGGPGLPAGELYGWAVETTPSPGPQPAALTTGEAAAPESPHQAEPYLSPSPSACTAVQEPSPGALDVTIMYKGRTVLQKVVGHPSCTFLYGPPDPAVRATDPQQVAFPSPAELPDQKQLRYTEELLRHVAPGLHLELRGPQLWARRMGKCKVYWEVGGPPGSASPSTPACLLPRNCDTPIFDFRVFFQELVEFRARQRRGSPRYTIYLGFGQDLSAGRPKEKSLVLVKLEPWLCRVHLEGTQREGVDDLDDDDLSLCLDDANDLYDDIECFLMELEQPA
GACGATATCGGGACTTGAGACGTGCTA: -0.111 z-score
TTAGGTAACCTTATCCTTTAGTGCTAG: 0.119 z-score
TTAGGTATCGGGTAGCGGTTAGTGCTA: -0.146 z-score
GCCGAACTGAGACTGGAGACGTGCTAG: -0.146 z-score
GACGAACTGGGTTTTCGAGACGTGCTA: 1.38 z-score
TCACATTAAATTTTAATACTGTGCTAG: 0.231 z-score
CCCTTTCTCTCTGTGACACAGTGCTAG: 3.25 z-score
TTAGATTTCGGGTCTGGATTAGTGCTA: 2.97 z-score

Mixed results
P1: viral docking peptide; YKVKRRLVFGADD; partner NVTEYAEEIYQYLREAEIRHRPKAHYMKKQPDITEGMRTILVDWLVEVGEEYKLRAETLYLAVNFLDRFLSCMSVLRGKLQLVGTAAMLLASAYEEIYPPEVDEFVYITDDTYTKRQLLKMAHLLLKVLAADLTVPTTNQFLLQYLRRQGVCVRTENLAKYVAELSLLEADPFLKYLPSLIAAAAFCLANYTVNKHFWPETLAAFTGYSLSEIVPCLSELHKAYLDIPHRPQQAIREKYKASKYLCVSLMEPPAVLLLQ
Cc1c(C(=O)NN2CCCCC2)nn(-c2ccc(Cl)cc2Cl)c1-c1ccc(I)cc1
activity (Sarcocystis neurona; HTS; concentration not given): active

P1 L7S
normalised enrichment score (CCNA1, cyclin fold, Cln2 fusion (human); yeast growth competition, sequencing; yeast; strong parent motif; reference: not given, higher = stronger binding): 0.633

medroxyprogesterone
activity (Sarcocystis neurona; HTS; concentration not given): inactive

COc1cc(NC(C)CCCN)c2ncccc2c1.O=P(O)(O)O.O=P(O)(O)O (stereo not drawn)
activity (Sarcocystis neurona; HTS; concentration not given): active

Cl.O=C1[C@H]2CCCC[C@H]2C(=O)N1CCCCN1CCN(c2nsc3ccccc23)CC1
activity (Sarcocystis neurona; HTS; concentration not given): active
